Assay results pooled from the literature.
Protocols differ between the studies behind these lines. Numbers after ± are the reported error.
Ricin A chain: Ricin, A chain (Ricinus communis, UniProt P02879)
Ces1c: Ces1c (Mus musculus, UniProt P23953)

Sequences of proteins named here, by UniProt entry; tags and fusion partners are left off. Residues count along the entry.
UniProt P23953, whole entry, looked up: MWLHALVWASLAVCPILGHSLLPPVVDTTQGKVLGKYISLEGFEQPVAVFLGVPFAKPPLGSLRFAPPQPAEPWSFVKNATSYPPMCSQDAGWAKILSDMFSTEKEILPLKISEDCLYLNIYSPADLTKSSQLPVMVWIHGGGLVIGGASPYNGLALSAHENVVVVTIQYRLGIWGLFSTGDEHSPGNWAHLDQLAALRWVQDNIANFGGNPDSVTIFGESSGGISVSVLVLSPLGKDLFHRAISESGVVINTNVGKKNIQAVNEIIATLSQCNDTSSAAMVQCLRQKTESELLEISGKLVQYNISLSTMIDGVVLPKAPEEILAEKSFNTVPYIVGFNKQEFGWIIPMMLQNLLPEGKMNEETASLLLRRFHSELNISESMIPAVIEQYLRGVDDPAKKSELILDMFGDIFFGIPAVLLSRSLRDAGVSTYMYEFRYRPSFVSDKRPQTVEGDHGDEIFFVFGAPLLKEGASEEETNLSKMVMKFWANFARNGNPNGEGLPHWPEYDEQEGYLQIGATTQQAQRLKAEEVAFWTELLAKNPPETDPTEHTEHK
UniProt P21836, whole entry, looked up: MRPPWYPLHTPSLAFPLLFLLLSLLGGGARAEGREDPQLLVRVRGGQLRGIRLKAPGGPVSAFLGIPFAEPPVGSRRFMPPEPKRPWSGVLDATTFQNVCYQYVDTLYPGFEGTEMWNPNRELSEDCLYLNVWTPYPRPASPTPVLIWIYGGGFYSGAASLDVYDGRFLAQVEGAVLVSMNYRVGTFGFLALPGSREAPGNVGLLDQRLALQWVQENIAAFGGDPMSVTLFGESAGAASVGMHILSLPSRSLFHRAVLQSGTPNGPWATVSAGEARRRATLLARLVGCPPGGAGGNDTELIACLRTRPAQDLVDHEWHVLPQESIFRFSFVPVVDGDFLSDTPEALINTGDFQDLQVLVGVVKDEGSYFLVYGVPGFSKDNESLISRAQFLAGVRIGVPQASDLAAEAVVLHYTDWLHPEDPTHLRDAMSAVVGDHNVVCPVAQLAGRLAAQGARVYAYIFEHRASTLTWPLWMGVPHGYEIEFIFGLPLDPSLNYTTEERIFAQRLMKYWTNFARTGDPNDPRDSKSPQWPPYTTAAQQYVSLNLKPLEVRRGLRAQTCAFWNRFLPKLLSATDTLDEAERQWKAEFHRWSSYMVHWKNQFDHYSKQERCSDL
UniProt P49582, 23-502 limits assumed: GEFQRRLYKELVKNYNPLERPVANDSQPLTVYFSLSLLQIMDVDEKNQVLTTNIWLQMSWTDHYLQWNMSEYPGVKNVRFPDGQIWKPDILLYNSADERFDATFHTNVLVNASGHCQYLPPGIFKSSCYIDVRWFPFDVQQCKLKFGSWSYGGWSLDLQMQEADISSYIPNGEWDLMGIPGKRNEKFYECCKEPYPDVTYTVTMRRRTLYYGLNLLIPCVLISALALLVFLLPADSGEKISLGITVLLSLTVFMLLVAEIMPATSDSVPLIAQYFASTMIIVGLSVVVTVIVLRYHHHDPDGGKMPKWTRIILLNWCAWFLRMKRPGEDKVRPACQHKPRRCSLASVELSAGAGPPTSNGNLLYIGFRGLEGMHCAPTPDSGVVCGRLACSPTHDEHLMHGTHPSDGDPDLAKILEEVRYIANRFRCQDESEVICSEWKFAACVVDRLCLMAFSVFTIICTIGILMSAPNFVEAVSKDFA
UniProt Q99720, whole entry: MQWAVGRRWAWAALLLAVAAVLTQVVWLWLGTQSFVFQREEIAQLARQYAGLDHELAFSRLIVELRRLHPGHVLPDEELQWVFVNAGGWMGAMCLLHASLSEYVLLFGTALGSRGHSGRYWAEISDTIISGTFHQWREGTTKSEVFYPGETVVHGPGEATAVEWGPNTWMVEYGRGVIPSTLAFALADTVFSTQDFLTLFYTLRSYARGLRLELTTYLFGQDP
UniProt P41144, whole entry: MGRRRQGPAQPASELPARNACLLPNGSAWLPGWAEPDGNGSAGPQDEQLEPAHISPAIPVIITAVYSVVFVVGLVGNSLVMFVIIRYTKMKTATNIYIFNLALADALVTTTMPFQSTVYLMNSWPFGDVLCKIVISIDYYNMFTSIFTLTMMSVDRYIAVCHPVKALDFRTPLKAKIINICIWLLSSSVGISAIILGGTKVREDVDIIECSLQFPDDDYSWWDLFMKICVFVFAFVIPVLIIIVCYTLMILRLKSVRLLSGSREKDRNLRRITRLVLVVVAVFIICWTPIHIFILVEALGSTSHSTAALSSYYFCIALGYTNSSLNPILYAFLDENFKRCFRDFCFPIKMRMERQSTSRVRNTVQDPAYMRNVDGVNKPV
UniProt P36544, 23-502 limits assumed: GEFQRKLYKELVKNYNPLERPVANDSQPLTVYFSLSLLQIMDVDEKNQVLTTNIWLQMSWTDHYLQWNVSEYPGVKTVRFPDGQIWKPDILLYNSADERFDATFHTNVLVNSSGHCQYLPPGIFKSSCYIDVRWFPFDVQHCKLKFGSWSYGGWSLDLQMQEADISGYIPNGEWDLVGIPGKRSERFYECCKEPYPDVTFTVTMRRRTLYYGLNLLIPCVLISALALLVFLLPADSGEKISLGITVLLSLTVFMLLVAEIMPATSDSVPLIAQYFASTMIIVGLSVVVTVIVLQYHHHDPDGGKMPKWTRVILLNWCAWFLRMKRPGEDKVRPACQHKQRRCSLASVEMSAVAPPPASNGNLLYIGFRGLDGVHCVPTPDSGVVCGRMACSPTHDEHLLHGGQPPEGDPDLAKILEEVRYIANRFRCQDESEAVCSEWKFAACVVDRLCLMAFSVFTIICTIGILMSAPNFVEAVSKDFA
UniProt P41145, whole entry: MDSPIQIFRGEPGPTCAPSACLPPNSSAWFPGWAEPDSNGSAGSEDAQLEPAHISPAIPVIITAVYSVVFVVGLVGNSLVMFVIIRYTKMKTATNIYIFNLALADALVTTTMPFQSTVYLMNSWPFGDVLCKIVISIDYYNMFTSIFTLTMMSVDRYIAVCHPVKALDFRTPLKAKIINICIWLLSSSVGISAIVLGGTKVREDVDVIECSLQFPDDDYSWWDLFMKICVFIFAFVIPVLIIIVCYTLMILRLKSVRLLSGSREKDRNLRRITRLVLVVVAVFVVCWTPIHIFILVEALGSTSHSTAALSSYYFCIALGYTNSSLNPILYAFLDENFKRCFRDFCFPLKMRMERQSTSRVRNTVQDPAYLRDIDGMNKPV
UniProt Q9GZQ6, whole entry: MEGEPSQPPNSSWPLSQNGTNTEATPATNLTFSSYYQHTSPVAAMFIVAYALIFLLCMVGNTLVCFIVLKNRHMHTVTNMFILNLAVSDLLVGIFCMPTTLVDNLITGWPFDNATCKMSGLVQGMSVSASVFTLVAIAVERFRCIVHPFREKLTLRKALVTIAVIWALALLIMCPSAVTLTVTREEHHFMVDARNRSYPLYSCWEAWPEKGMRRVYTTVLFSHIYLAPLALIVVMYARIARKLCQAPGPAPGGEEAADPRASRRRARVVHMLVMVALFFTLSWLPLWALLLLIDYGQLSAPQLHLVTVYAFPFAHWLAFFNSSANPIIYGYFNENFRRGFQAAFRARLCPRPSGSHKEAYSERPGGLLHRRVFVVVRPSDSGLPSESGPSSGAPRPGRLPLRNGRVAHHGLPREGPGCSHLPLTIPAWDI
UniProt P35372, whole entry: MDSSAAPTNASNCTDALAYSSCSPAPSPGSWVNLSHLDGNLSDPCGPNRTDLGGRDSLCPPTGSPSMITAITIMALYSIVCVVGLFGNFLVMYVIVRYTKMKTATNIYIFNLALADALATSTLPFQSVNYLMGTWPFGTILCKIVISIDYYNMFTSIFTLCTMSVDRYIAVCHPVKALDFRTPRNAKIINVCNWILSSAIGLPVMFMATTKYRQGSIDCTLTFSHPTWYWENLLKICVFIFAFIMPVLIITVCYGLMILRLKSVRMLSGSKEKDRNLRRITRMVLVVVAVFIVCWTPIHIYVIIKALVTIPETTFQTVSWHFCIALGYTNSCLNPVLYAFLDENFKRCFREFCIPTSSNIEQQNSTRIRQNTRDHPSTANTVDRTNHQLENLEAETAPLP

Molecule | tested on | test | test system | setting | how to read | measurement | value
CCOP(=S)(OCC)Oc1nc(Cl)c(Cl)cc1Cl | Ache (Mus musculus, UniProt P21836) | – | ES1-/- mice | transdermal, 100 mg/kg, 24 h, toxicant challenge | – | inhibition | 53%
CCCSc1nc(N[C@@H]2C[C@H]2c2ccc(F)c(F)c2)c2nnn([C@@H]3C[C@H](OCCO)[C@@H](O)[C@H]3O)c2n1 | – | – | STEMI patients, plasma | 180 mg loading dose, 12 h, added: fentanyl | – | plasma concentration | 425 ± 424 ng/mL
C[C@H](NP(=O)(Nc1ccn([C@H]2CS[C@@H](CO)O2)c(=O)n1)N[C@@H](C)C(=O)OCc1ccccc1)C(=O)OCc1ccccc1 | HeLa | cell proliferation | – | 3 d | – | IC50 | ≥ 250000 nM
O=S1(=O)c2ccc(F)cc2-c2ccc(N3CCN4CCC3CC4)cc21 [fluorine-18 labelled] | Chrna7 (Mus musculus, UniProt P49582) | – | mouse, colliculus | dose not given, 90 min, unit not given | baseline: cerebellum | binding potential BPND | 2 ± 0.5
Cc1cc2c(-c3ccco3)cnc(N[C@@H]3CCN(C)C[C@H]3C(=O)NC3CCCCC3)c2[nH]c1=O | SIGMAR1 (Homo sapiens, UniProt Q99720) | binding, radioligand binding | – | 10 µM | – | inhibition | 22.6%
NC(=O)c1ccc[n+]([C@@H]2O[C@H](COP(=O)([O-])OP(=O)(O)OC[C@H]3O[C@@H](n4cnc5c(N)ncnc54)[C@H](O)[C@@H]3O)[C@@H](O)[C@H]2O)c1 | Inosine-5'-monophosphate dehydrogenase (Clostridium perfringens, UniProt A0A127ELD1) | substrate | – | pH 8.0, 25 °C | – | Km | 370 ± 4 µM
Nc1nc(=O)c2ncc(C(=O)O)nc2[nH]1 | Ricin A chain | differential scanning fluorimetry | – | 500 µM, pH 7.5, 2 µM protein | – | ΔTm | 2 °C
O=CN1CC[C@]23c4c5ccc(O)c4O[C@H]2[C@@H](O)C=C[C@H]3[C@H]1C5 | OPRK1 (Cavia porcellus, UniProt P41144) | antagonist | guinea pig ileum | – | – | Ke | 1890 nM
NC12CC3CC(CC(C3)C1)C2 | Influenza A virus | viral replication | MDCK, A/Swine/Iowa/11-0909/2010 | – | – | EC50 | < 1000 nM
CNC(=O)ON=C(C)SC | Acetylcholinesterase (Cavia porcellus, UniProt D3YE96) | Ellman | – | – | – | IC95 | 174000 nM
Cc1cc(N)c2ccccc2[n+]1CCCCCCCCCC[n+]1c(C)cc(N)c2ccccc21 | L/N (Lassa virus, UniProt O09705+P13699) | viral replication, Gaussia luciferase reporter | – | – | – | EC50 | 1530 nM
C[C@@H]1NC(=O)[C@H](CCCNC(=N)N)NC(=O)[C@H](CCCNC(=N)N)NC(=O)[C@H](Cc2c[nH]cn2)NC(=O)[C@H](CO)NC(=O)[C@H](CCCCN)NC(=O)[C@@H]2CSSC[C@H](NC(=O)CN)C(=O)N[C@@H](CSSC[C@@H](C(N)=O)NC(=O)[C@H](CCCNC(=N)N)NC1=O)C(=O)N[C@@H](CO)C(=O)N[C@@H](Cc1c[nH]cn1)C(=O)N1CCC[C@H]1C(=O)N[C@@H](C)C(=O)N2 | CHRNA7 (Homo sapiens, UniProt P36544) | ion current, antagonist | Xenopus oocytes | 10 µM, 5 min, added: acetylcholine | baseline: control | remaining response | 13 ± 7%
CCOP(=S)(OCC)Oc1cc(C)nc(C(C)C)n1 | Ces1c | alpha-naphthyl acetate hydrolysis | ES1+/+ mice, plasma | subcutaneous, 50.0 mg/kg, 2.0 h, toxicant challenge | – | inhibition | 100%
C[C@H](NP(=O)(Nc1ccn([C@H]2CS[C@@H](COP(=O)(N[C@@H](C)C(=O)OCc3ccccc3)N[C@@H](C)C(=O)OCc3ccccc3)O2)c(=O)n1)N[C@@H](C)C(=O)OCc1ccccc1)C(=O)OCc1ccccc1 | L1210 | cell proliferation | – | 2 d | – | IC50 | > 250000 nM
O=C1Cc2ccccc2N1C1CCN([C@H]2CC[C@@H]3CCCc4cccc2c43)CC1 (relative stereo) | OPRK1 (Homo sapiens, UniProt P41145) | radioligand displacement | – | added: tritiated U-69593 | – | Ki | 516 ± 57.9 nM
N-carbamoyl-aspartate | Dihydroorotase (Bacillus anthracis, UniProt Q81WF0, N93A) | substrate | – | N93A mutant | – | Km | 1180 ± 251 µM
Nc1nc2nc(C(=O)NCCNc3ccccc3)cnc2c(=O)[nH]1 | Ricin A chain | differential scanning fluorimetry | – | 500 µM, pH 7.5, 2 µM protein | – | ΔTm | 3 °C
N=C(N)NCC(=O)NCC1(Nc2cccc3ccccc23)CCN(Cc2ccccc2)CC1 | NPFFR1 (Homo sapiens, UniProt Q9GZQ6) | – | – | – | baseline: mu and kappa opioid over NPFF1 | selectivity ratio | 7 to 43 fold
CCOP(=O)(OCC)Oc1ccc([N+](=O)[O-])cc1 | Ces1c | alpha-naphthyl acetate hydrolysis | ES1+/+ mice, plasma | subcutaneous, 0.2 mg/kg, 0.5 h, toxicant challenge | – | inhibition | 91%
CO[C@]12CC[C@@]3(C[C@@H]1[C@](C)(O)c1cccc(F)c1)[C@H]1Cc4ccc(O)c5c4[C@@]3(CCN1CC1CC1)[C@H]2O5 | OPRK1 (Homo sapiens, UniProt P41145) | G-protein activation, agonist | – | 10 µM | baseline: U-69593 | stimulation | 77 ± 1%
CN(C)[C@]1(c2ccccc2)CC[C@]2(CC1)OCCc1c3cc(F)ccc3[nH]c12 | OPRM1 (Homo sapiens, UniProt P35372) | cAMP, agonist | – | human receptor | – | Emax | 100.3 ± 0.3%

A few entries again:
Molecule | tested on | test | test system | setting | how to read | measurement | value
CCOP(=S)(OCC)Oc1cc(C)nc(C(C)C)n1 | Ces1c | alpha-naphthyl acetate hydrolysis | ES1+/+ mice, plasma | subcutaneous, 50.0 mg/kg, 2.0 h, toxicant challenge | – | inhibition | 100%
C[C@H](NP(=O)(Nc1ccn([C@H]2CS[C@@H](COP(=O)(N[C@@H](C)C(=O)OCc3ccccc3)N[C@@H](C)C(=O)OCc3ccccc3)O2)c(=O)n1)N[C@@H](C)C(=O)OCc1ccccc1)C(=O)OCc1ccccc1 | L1210 | cell proliferation | – | 2 d | – | IC50 | > 250000 nM
O=C1Cc2ccccc2N1C1CCN([C@H]2CC[C@@H]3CCCc4cccc2c43)CC1 (relative stereo) | OPRK1 (Homo sapiens, UniProt P41145) | radioligand displacement | – | added: tritiated U-69593 | – | Ki | 516 ± 57.9 nM
N-carbamoyl-aspartate | Dihydroorotase (Bacillus anthracis, UniProt Q81WF0, N93A) | substrate | – | N93A mutant | – | Km | 1180 ± 251 µM
